{"data": "Experimental data collected from several papers", "note": "Every numbered part comes from another study and shows a few of its results, in no order."}
{"data": "Set 1", "Structure (SMILES)": "Cn1cc(-c2cccc(CN3CCC4(CC3)COc3c4ccc4c3CN([C@H]3CCC(=O)NC3=O)C4=O)c2)cn1"}
{"system": "rat liver microsomes", "intrinsic clearance": "< 20.7 mL/min/kg"}
{"system": "human liver microsomes", "intrinsic clearance": "< 14.5 mL/min/kg"}
{"system": "mouse liver microsomes", "intrinsic clearance": "< 45.5 mL/min/kg"}
{"data": "Set 2", "Compound": "N=C(N)NCCCCCCN1CCC23c4c5ccc(O)c4OC2c2nc4ccccc4cc2CC3(O)C1C5 (stereo not shown)", "technique": "modified Racine scale", "host": "C57BL/6J mice, male", "route": "intracerebroventricular", "dose": "100 nmol", "direction": "direction not given"}
{"setting": "10 min", "seizure score": 0}
{"setting": "70 min", "seizure score": 0}
{"setting": "35 min", "seizure score": 0}
{"setting": "80 min", "seizure score": 0}
{"data": "Set 3", "SMILES": "CCCCC[C@@H]1CC(=O)N[C@@H](C(C)C)C(=O)N[C@H](CCCNC(=N)N)C(=O)N[C@@H](C(C)C)C(=O)NCC(=O)N2CCC[C@H]2C(=O)N[C@@H](CC(C)C)C(=O)N[C@H](CCCNC(=N)N)C(=O)N[C@@H](CCC(=O)O)C(=O)N[C@H](Cc2ccc(O)cc2)C(=O)N[C@H](Cc2c[nH]c3ccccc23)C(=O)NCCCC(=O)O1", "organism": "Staphylococcus aureus", "strain": "USA300"}
{"setting": "with: menaquinone 16 µg/mL", "MIC [µg/mL]": 64}
{"setting": "with: menaquinone 0.125 µg/mL", "MIC [µg/mL]": 2}
{"setting": "with: ubiquinone 64 µg/mL", "MIC [µg/mL]": 1}
{"setting": "with: menaquinone 1 µg/mL", "MIC [µg/mL]": 8}
{"setting": "with: menaquinone 32 µg/mL", "MIC [µg/mL]": "> 64"}
{"data": "Further values, each from its own experiment"}
{"SMILES": "CCN1/C(=C/C=C2\\CCCC(/C=C/C3=[N+](CC)c4ccccc4C3(C)C)=C2NCCCCCCCCN2CCC(Nc3nc4ccccc4n3Cc3ccc(F)cc3)CC2)C(C)(C)c2ccccc21", "cell line": "U-87 MG", "assay": "item: COL4A2 mRNA", "setting": "concentration not given", "scale": "reference: DMSO", "endpoint": "log2 fold change", "value": -1.02}
{"note": "For quick reference, copied from above (set 1):"}
{"system": "mouse liver microsomes", "intrinsic clearance": "< 45.5 mL/min/kg"}
{"system": "rat liver microsomes", "intrinsic clearance": "< 20.7 mL/min/kg"}
